Published values pooled from the literature.
Parts stem from different laboratories: compare values within a part only. Substitutions count along the parent as printed.

Series 1
Target: Histone acetyltransferase KAT6A, winged helix 2, GST fusion (KAT6A, Homo sapiens, UniProt Q92794, residues 85-181)
Method: protein binding microarray
Molecule type: double-stranded DNA, one strand shown
Matrix: in vitro
Tested at: not given
Setting: 8-mer, flanks averaged, mean of 2 arrays, mostly near background
Baseline: not given
Direction: higher = stronger binding
Quantity: E-score
Construct (chain): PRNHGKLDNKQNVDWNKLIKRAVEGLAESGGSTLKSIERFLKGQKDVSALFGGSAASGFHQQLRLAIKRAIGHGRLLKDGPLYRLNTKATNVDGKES
Strand = GTCATGAA; result = 0.0112
Strand = ACCCGGCC; result = 0.155
Strand = CATTACAC; result = -0.199
Strand = ACCGCCTA; result = 0.127
Strand = ATTTGCCG; result = 0.221
Strand = ATTCCCCG; result = -0.00724
Strand = ATCGCTGA; result = -0.127
Strand = AAAGTTAG; result = 0.0289
Strand = GCGTATGA; result = 0.0188
Strand = CTCTTCGC; result = 0.0848
Strand = CTACGGTA; result = -0.236
Strand = CTTGCATC; result = -0.0669
Strand = TATGCCCA; result = -0.0134
Strand = AGGTGTTG; result = -0.224
Strand = CTGCACAA; result = 0.0308
Strand = TATGCGCA; result = -0.0366
Strand = CTTGCGAA; result = 0.162
Strand = GTACGACA; result = -0.0961
Strand = TAATCGTA; result = -0.0591
Strand = CACTGCCC; result = 0.0294
Strand = CAAAGTAA; result = -0.00912
Strand = CAACAGAG; result = 0.0599

Series 2
Target: RNA binding protein fox-1 homolog 2, RRM domain, GST-SBP tag (RBFOX2, Homo sapiens, UniProt O43251-10, residues 100-194)
Method: RNA Bind-n-Seq
Molecule type: RNA
Matrix: in vitro
Tested at: 365 nM
Setting: natural RNA segment, single round, ends assumed
Baseline: no-protein control
Direction: higher = stronger binding
Quantity: RBNS enrichment (R)
Residues (chain): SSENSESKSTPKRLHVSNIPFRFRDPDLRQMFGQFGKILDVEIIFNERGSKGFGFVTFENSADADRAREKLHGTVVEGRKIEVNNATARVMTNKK
Strand = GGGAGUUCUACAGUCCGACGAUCUAAAAUCAUGUUUGUGACUGUAACCAUUUGUAUGAAUUAUUUUAAAGAAAUAAAAAUCCUGGAAAGACCAGCGUGCCCAGCAUCUAUUCUGGUGACUUUCUCUCAUGAGGUGGAAUUCUCGGGUGCCAA; result = 1.16
Strand = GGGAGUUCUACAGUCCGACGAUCGUGGUUCACAUUCCUAGUGAGAAGCAGAGAUCUGGAGGUGUGCAGUCCUCAGCCUCACAGCUUCCUUCCCUUUUCAGCAGGCUGAUGGAGACAUGCCACCAACAUAGACAUGGAAUUCUCGGGUGCCAA; result = 0.375
Strand = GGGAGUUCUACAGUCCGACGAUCUUCUGGCUUUUCUGAGGGCUAGGGCAUGGUGCCCACCUCUCAAGUAUAAGAAACUGCAUCCUGCCUCCAGCCCCCUUGGGGCAGGGAUUGGCUUGGAACAGAGGUUGGCCUGGAAUUCUCGGGUGCCAA; result = 0.279
Strand = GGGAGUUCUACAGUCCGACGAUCGCCUCCUACAGCAAGGACAGGAAUCAGACCGACUCCCUAGCUUACGCUCUGGGAGGGGUACUGGGUACCCCACCCUUCACUGAGGCCUUUGGAUUUGUCUCAGUGCCUUAUGGAAUUCUCGGGUGCCAA; result = 0.217
Strand = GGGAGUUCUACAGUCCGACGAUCGCAGGGGUAGGGAAGCUCACCCCUCCCCCCCAAAGCCAUGUCACUGAAGAGGCCUGGGGGGUGGUAUAUGGCCCCUCCCCAUCAGGCGCUAAGGGGACACCCCUUCCCCAUGGAAUUCUCGGGUGCCAA; result = 0.272
Strand = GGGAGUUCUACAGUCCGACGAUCUGCUUUCAAUACACGAUUAGUAAUCAACUGUUUUGUAUACUUGUUUUCAGUUUUCAUUUCGACAAACAAGCACUGUAAUUAUAGCUAUUAGAAUAAAAUCUCUUAACUAUUGGAAUUCUCGGGUGCCAA; result = 0.347
Strand = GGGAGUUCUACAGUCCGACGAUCACUCCCUUGCUGGGCACUACCCCCCCACCUGAUACCCUGCUGUGUAGUCUGACACUGGAGUCCCCAACCCACCCCAUUCCUGCCCUCAUCCUCAGCCCAUCAUUUGUGAAUGGAAUUCUCGGGUGCCAA; result = 1.08
Strand = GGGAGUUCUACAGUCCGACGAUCUCCUGCCUUAGCCUCCUGAGUAGCUGGGUCAGCCACCAUGGCUGACUCAUUUUUUGUAUUUUUAGUAGAGAAGGGGUUUUACCGUGUUAGCCAGGCUGGUCUUGAACUCCUGGAAUUCUCGGGUGCCAA; result = 1.15

Series 3
Target: Interferon regulatory factor 7, full length, phosphomimetic (IRF7, Homo sapiens, UniProt Q92985, residues 1-503, S471D/S472D/S475D/S476D/S477D/S483D/S484D/S487D)
UniProt Q92985, sequence (whole entry, unmodified, looked up): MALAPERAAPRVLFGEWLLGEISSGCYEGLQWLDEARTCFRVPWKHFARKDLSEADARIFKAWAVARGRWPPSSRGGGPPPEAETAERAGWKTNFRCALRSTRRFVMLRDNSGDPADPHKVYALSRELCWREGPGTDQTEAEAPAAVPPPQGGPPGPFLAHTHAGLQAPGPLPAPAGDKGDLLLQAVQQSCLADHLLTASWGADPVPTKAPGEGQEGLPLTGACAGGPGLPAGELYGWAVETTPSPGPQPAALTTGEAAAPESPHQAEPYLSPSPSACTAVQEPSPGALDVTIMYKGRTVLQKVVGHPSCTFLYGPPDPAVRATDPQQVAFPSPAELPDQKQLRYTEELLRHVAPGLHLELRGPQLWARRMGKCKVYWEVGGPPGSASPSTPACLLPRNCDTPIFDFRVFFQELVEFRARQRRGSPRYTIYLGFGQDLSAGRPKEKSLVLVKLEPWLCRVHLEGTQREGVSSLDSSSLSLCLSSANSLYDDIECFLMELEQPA
Method: protein-binding microarray
Molecule type: double-stranded DNA, one strand shown
Matrix: in vitro
Tested at: 2200 nM top
Setting: 60-bp whole probe
With: salmon DNA 0.4 mg/ml
Baseline: random background probes
Direction: higher = stronger binding
Quantity: fitted relative affinity
Constant ends, left off below: GCCTAGCAC … GTCTTGATTCGCTTGACGCTGCTG
Strand = TTAGGACTGGGGTTTCGGTTAGTGCTA; result = 2.67 z-score
Strand = TAAGATCTCAGACTGGATTAGTGCTAG; result = -0.285 z-score
Strand = TCAGTTTACATTTTCCAACTGTGCTAG; result = 3.74 z-score
Strand = GACGGTTTCGGTTTCCGGACGTGCTAG; result = 14.7 z-score
Strand = GAGCCCGGGGTGTAAGCAACGTGCTAG; result = -1.21 z-score
Strand = TTTGATTTCGGGTATCGATTAGTGCTA; result = 3.6 z-score
Strand = GACGATATCAGTATCGAGTCGTGCTAG; result = 0.697 z-score
Strand = TCATTCTTCCCTGTGAAACTGTGCTAG; result = 1.99 z-score
Strand = TTAGGTATCCTTTTCTTTTAGTGCTAG; result = 1.53 z-score
Strand = TCACATTTGGAAAATGTAACTGTGCTA; result = 0.584 z-score
Strand = GACGGTTTCGGGTCTGGGGACGTGCTA; result = 7.09 z-score
Strand = TTAGGAATGGACTATCGGTTAGTGCTA; result = -0.467 z-score
Strand = TTAGGATTCGGGTATCGGTTAGTGCTA; result = 1.31 z-score
Strand = GACCGTTTCGGGTTTCGGGACGTGCTA; result = 6.98 z-score
Strand = GACCGTCTCCTTTTCCTGACGTGCTAG; result = 1.87 z-score
Strand = GACGGGATCGGGTTTCGGGACGTGCTA; result = 0.737 z-score
Strand = GACGGACTGCGTATCCTGACGTGCTAG; result = 0.314 z-score
Strand = GACGGTTTCGTTTCCCTGACGTGCTAG; result = 10.9 z-score
Strand = TTAGATATCAGTTTCGATTTGTGCTAG; result = 11.8 z-score

Series 4
Target: CCND1, cyclin fold, Cln2 fusion (human)
Method: yeast growth competition, sequencing
Matrix: yeast
Setting: weak parent motif
Baseline: not given
Direction: higher = stronger binding
Quantity: normalised enrichment score
Starting sequence: CDC25A docking peptide (human); PPHRRRLLFACSP; partner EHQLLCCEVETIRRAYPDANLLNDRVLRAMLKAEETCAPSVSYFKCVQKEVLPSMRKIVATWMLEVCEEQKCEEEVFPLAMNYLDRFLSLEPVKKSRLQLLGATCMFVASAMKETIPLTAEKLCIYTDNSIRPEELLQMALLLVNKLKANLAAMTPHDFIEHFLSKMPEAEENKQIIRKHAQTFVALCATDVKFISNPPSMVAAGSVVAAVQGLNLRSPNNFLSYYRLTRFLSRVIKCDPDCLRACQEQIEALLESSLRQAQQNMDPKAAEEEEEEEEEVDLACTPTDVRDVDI
Change = PPHRRQLLFACSP [R6Q]; result = 0.262
Change = PPHRRRLLFACLP [S12L]; result = 0.524
Change = PHHRRRLLFACSP [P2H]; result = 0.388
Change = PPHRRRLLFAWSP [C11W]; result = 0.17
Change = PPHRTRLLFACSP [R5T]; result = -0.0575
Change = PPLRRRLLFACSP [H3L]; result = 0.359
Change = PPHRRWLLFACSP [R6W]; result = 1.16
Change = PPHLRRLLFACSP [R4L]; result = 0.827
Change = PPHIRRLLFACSP [R4I]; result = 0.71
Change = PPHRQRLLFACSP [R5Q]; result = 0.3
Change = PPHRRRLLFACSW [P13W]; result = -0.199
Change = PPHRRRLLFACRP [S12R]; result = 0.421
Change = PPHRRRLLFAPSP [C11P]; result = 0.13
Change = PPHRRRLIFACSP [L8I]; result = 0.14
Change = APHRRRLLFACSP [P1A]; result = 0.000853
Change = PPHWRRLLFACSP [R4W]; result = 0.367
Change = PPHRRRLLFAYSP [C11Y]; result = -0.0674
Change = PNHRRRLLFACSP [P2N]; result = 0.25
Change = PPHRAAAAFACSP [R5A R6A L7A L8A]; result = 0.148
Change = PPHRRRLLFAESP [C11E]; result = -0.556
Change = PPHRRRLLFLCSP [A10L]; result = -0.045
Change = PPHERRLLFACSP [R4E]; result = 0.0121
Change = PPHRRRLWFACSP [L8W]; result = 0.522
Change = PPHRRRLLFACGP [S12G]; result = 0.37

Some of these lines once more (series 1):
Strand = ACCCGGCC; result = 0.155
Strand = CATTACAC; result = -0.199
Strand = ACCGCCTA; result = 0.127
Strand = ATTTGCCG; result = 0.221
Strand = ATTCCCCG; result = -0.00724
Strand = ATCGCTGA; result = -0.127
Strand = AAAGTTAG; result = 0.0289
Strand = GCGTATGA; result = 0.0188
Strand = CTCTTCGC; result = 0.0848
